Assay results from different studies.
Lines come from different studies, so protocols differ. ± marks the error that the study gave.
TMPRSS2: Transmembrane protease serine 2 (TMPRSS2, Homo sapiens, UniProt O15393)
P4HB: Protein disulfide-isomerase (P4HB, Homo sapiens, UniProt P07237)
FGFR1: Fibroblast growth factor receptor 1 (FGFR1, Homo sapiens, UniProt P11362)

Compound | target | test | test system | setting | IC50
CN(CC(=O)c1ccc2[nH]c(=O)[nH]c2c1)Cc1ccco1 | Single-stranded DNA cytosine deaminase (AICDA, Homo sapiens, UniProt Q9GZX7) | deaminase activity, inhibitor, alkaline cleavage | 293T lysate, untagged | pH 7.2, 37 °C | 11000 nM
O=C(O)c1ccc(C=C2SC(=S)N(c3cccc(C(F)(F)F)c3)C2=O)cc1 | Cystic fibrosis transmembrane conductance regulator (CFTR, Homo sapiens, UniProt P13569, D1370N) | ion current, inhibitor, patch clamp | – | – | 64 nM
CC[C@H](C)[C@H](NC(=O)[C@H](CCCNC(=N)N)NC(=O)[C@H](CCCNC(=N)N)NC(=O)[C@H](CC(C)C)NC(=O)[C@H](C)NC(=O)[C@@H]1CCC(=O)N[C@@H](CNC(=O)CCl)C(=O)N[C@@H]([C@@H](C)CC)C(=O)N[C@@H](C)C(=O)N1)C(=O)NCC(=O)N[C@@H](CC(=O)O)C(=O)N[C@@H](C)C(=O)N[C@@H](Cc1ccccc1)C(=O)N[C@@H](CC(N)=O)C(=O)N[C@@H](C)C(=O)N[C@@H](C)C(=O)N[C@@H](Cc1ccc(O)cc1)C(N)=O | Bcl-2-like protein 1 (BCL2L1, Homo sapiens, UniProt Q07817) | BID BH3 peptide binding, inhibitor, DELFIA displacement | – | 2 h, 1% DMSO | 1750 ± 500 nM
Cc1ccc(CNC(=O)[C@H](CCc2ccccc2)NC(=O)[C@H](CCc2ccccc2)NC(=O)[C@@H](N)Cc2ccncc2)cc1 | 20S proteasome (Plasmodium falciparum, UniProt A0A5K1K7U1+Q8IJT1) | β5 activity, inhibitor | – | added: Suc-LLVY-AMC, PA28α-activated | 9.24 nM
NCc1ccc(NC(=O)c2cc3ccccc3cc2O)cc1 | TMPRSS2 | enzyme activity, inhibitor, fluorescence | – | with preincubation | 2100 nM
CCc1nc2cc(C)c(Oc3ccc(OC(F)(F)F)cc3)cc2c(O)c1C | cytochrome b (Plutella xylostella, UniProt A0A0U1XI17) | succinate-cytochrome c oxidoreductase activity, inhibitor | Plutella xylostella, mitochondria | 4 min preincubation, 30 °C | 18 nM
Cc1nc(NC(=O)N2CCCC2)sc1-c1csc(C(C)(C)C)n1 | Phosphatidylinositol 4-kinase alpha (PI4KA, Homo sapiens, UniProt P42356) | enzyme activity, inhibitor | – | – | > 10000 nM
N=C(N)SCc1ccc(CSC(=N)N)cc1 | Tryptophan 2,3-dioxygenase (TDO2, Homo sapiens, UniProt P48775) | – | – | added: L-tryptophan 2 mM | > 30000 nM
N#Cc1cccc(/C=C/C(=O)c2ccc(O)cc2)c1 | P4HB | enzyme activity, inhibitor | – | – | 930 nM
O=c1c(OCc2ccccc2)c(-c2ccc(N(c3ccccc3)c3ccccc3)cc2)oc2ccccc12 | β-glucosidase | enzyme activity, inhibitor | – | – | 510 ± 260 nM
O=c1c(O)c(-c2ccccc2)oc2c1ccc1ccccc12 | Kynurenine 3-monooxygenase (KMO, Homo sapiens, UniProt O15229) | enzyme activity, inhibitor, absorbance | – | – | 15800 nM
O=C(NCCCN1CCC(Cc2ccccc2)CC1)c1ccc2cc(Br)ccc2c1 | Sodium-dependent serotonin transporter (SLC6A4, Homo sapiens, UniProt P31645) | transporter uptake | – | – | 310 to 46000 nM
NCCO[C@H]1[C@H](O)[C@@H](O)[C@@H]2O[C@@H]2[C@@H]1C(=O)O | Heparanase (HPSE, Homo sapiens, UniProt Q9Y251) | enzyme activity, inhibitor | – | pH 5, with preincubation | > 100000 nM
O=C(O)c1ccccc1NCc1ccc(Cl)cc1Cl | Transient receptor potential cation channel subfamily M member 4 (TRPM4, Homo sapiens, UniProt Q8TD43) | ion flux, inhibitor, fluorescence | – | – | 5900 nM
COC(=O)[C@H]1C[C@H](OCCCl)[C@@H](O[C@H]2O[C@H](CO)[C@@H](O)[C@H](O)[C@@H]2n2cc(C(N)c3ccccc3)nn2)C[C@@H]1C(=O)OC (mixture of isomers) | CD209 antigen (CD209, Homo sapiens, UniProt Q9NNX6) | cell-free assay, SPR | – | – | 407000 nM
Cc1cc2c(NC(=O)N[C@@H]3CC(C)(C)Oc4cc(C(F)(F)F)ccc43)c(C)ccc2cn1 | Transient receptor potential cation channel subfamily V member 1 (Trpv1, Rattus norvegicus, UniProt O35433) | calcium signal, antagonist, fluorescence | – | – | 54.6 nM
c1ccc(-c2cc3ccccc3o/c2=N\c2cccc3ccccc23)cc1 | Prostaglandin G/H synthase 2 (PTGS2, Homo sapiens, UniProt P35354) | enzyme activity, inhibitor | – | – | 8.3 nM
CN(C)c1ccc2cc(S(=O)(=O)N3CC3C(N)=O)ccc2c1 (stereo not drawn) | P4HB | enzyme activity, inhibitor, absorbance | – | pH 7.6 | 33000 nM
COc1ccc(S(=O)(=O)NCc2c[nH]nc2-c2cccs2)cc1 | Myosin A, motor domain (Cryptosporidium parvum, UniProt Q5CY39) | actin-activated ATPase | – | upper bound, enzyme-limited | < 100 nM
COc1cc2nccc(Oc3ccc(NC(=S)NC4CC=C(F)CC4)c(Cl)c3)c2cc1C(N)=O (stereo not drawn) | FGFR1 | – | – | – | 7480 nM

Compound | target | test | test system | setting | IC50
CCN(CC)C(=O)C1CCCN(C(=O)Nc2ccc3nc(-c4ccco4)c(-c4ccco4)nc3c2)C1 (stereo not drawn) | Peptidyl-prolyl cis-trans isomerase A (PPIA, Homo sapiens, UniProt P62937) | PPIase activity, inhibitor | – | 1 h preincubation, 4 °C | 410 nM
O=C(CSc1nc2sc3c(c2c(=O)n1-c1ccccc1)CCCCC3)NN=Cc1ccc(F)cc1 | Dihydrofolate reductase (DHFR, Homo sapiens, UniProt P00374) | enzyme activity, inhibitor, ELISA | – | – | 200 nM
COC(=O)c1ccc(CS(=O)(=O)CC(=O)C23CC4CC(CC(C4)C2)C3)o1 | 11-beta-hydroxysteroid dehydrogenase 1 (HSD11B1, Homo sapiens, UniProt P28845) | enzyme activity in cells, inhibitor | – | – | 239 nM
COc1ccc2c3c(c(Cc4ccc(Br)cc4)[nH]c13)CCNC2=O | cGMP-specific 3',5'-cyclic phosphodiesterase (PDE5A, Homo sapiens, UniProt O76074) | enzyme activity, inhibitor | – | – | 55 nM
COc1cc(/C=C/c2cc(/C=C/c3ccc(O)c(OC)c3)n(C(N)=O)n2)ccc1O | Sterol carrier protein 2 (Helicoverpa armigera, UniProt K7NSY9) | displacement of 1,8-ANS, fluorescence | – | pH 7.0, 25 °C, added: 1,8-ANS 15 µM | 32000 nM
NC(c1ccccc1)(c1ccccc1)c1ccccc1 | Gap junction alpha-8 protein (Gja8, Mus musculus, UniProt P28236) | gap junction current, inhibitor, dual whole-cell voltage clamp | transfected mouse N2a cell pairs | – | 1500 nM
Cc1cc(N2CCN(C(=O)CN3CCN(c4ccccc4)CC3)CC2)n2ncnc2n1 | Aromatase (CYP19A1, Homo sapiens, UniProt P11511) | enzyme activity, inhibitor | – | – | 567 nM
CC(C)(C)OC(=O)Nc1ccc(-c2cc(C(=O)NCCCCCCC(=O)NO)no2)cc1 | HDAC (Lucilia cuprina egg nuclear extract) | enzyme activity, inhibitor, fluorometric | – | – | 165 nM
N[C@@H](CCC(=O)N[C@@H](CS[Se]Cc1ccc(C(=O)Nc2cc(C(F)(F)F)c(Br)c(C(F)(F)F)c2)cc1)C(=O)NCC(=O)O)C(=O)O | Receptor-type tyrosine-protein phosphatase F (Homo sapiens, UniProt P10586) | enzyme activity, inhibitor | – | added: pNPP, GSH 1 mM | > 100000 nM
O=C(Nc1ccc(Cl)c(NCc2cccnc2)c1)c1ccc(Cl)c(C(F)(F)F)c1 | Epithelial discoidin domain-containing receptor 1 (DDR1, Homo sapiens, UniProt Q08345) | enzyme activity, inhibitor, mobility shift | – | – | 187 nM
CCCCCCCc1ccc(S(=O)(=O)N2CC2C(=O)OC)cc1 (stereo not drawn) | P4HB | enzyme activity, inhibitor, absorbance | – | pH 7.6 | 70 nM
C=CC(=O)N1CCC(c2ccccc2)CC1 | Protein FosB, ΔFosB isoform (Fosb, Mus musculus, UniProt P13346) | ΔFOSB homodimer DNA binding, fluorescence polarization | – | 15 min, added: TMR-cdk5 oligonucleotide | > 200000 nM
CC(C)OP(=O)(O)C[C@H]1C[C@@](O)(C(=O)O)C[C@@H](O)[C@@H]1O | 3-dehydroquinate synthase, chloroplastic (DHQS, Arabidopsis thaliana, UniProt Q8VYV7) | enzyme activity, inhibitor, malachite green phosphate release | – | 29 °C | 0.6 nM
O=C(Nc1ccc(C(=O)Nc2ccc(C(=O)Nc3ccc(S(=O)(=O)O)c4cc(S(=O)(=O)O)cc(S(=O)(=O)O)c34)cc2)cc1)Nc1ccc(C(=O)Nc2ccc(C(=O)Nc3ccc(S(=O)(=O)O)c4cc(S(=O)(=O)O)cc(S(=O)(=O)O)c34)cc2)cc1 | Neutrophil elastase (ELANE, Homo sapiens, UniProt P08246) | enzyme activity, inhibitor | – | extrapolated to no NaCl | ~4.4 nM
NCc1cccc(C2CCN(C(=O)c3cccc(NC(=O)C(=O)C4(O)CCC4)c3)CC2)c1 | Tryptase beta-1 (Homo sapiens, UniProt Q15661) | enzyme activity, inhibitor, AMC substrate release | – | – | 189 nM
NCc1ccc(NC(=O)c2ccc(C(F)(F)F)cc2O)cc1 | TMPRSS2 | enzyme activity, inhibitor, fluorescence | – | with preincubation | 30200 nM
C[C@@H](O)[C@H](NS(=O)(=O)NS(=O)(=O)OC[C@H]1O[C@@H](n2cnc3c(N)ncnc32)[C@H](O)[C@@H]1O)C(=O)O | tsaD/tsaC, with TsaB and TsaE (Escherichia coli, UniProt P05852+P45748) | inhibitor, HPLC | – | pH 7.5, 23 °C, preincubation 1 min, added: ATP 1 mM and L-threonine | 45500 ± 1100 nM
COc1cc2nccc(Oc3ccc(NC(=S)Nc4ccc(Cl)cc4F)c(Cl)c3)c2cc1C(N)=O | FGFR1 | – | – | – | 9150 nM
CCc1c(-c2cccc3[nH]ccc23)[nH]c(C(=O)O)c1-c1ccccc1Cl | E3 ubiquitin-protein ligase RING2, with BMI1 (RNF2, Homo sapiens, UniProt Q99496) | – | – | – | ~12000 nM

Excerpt of the above:
Compound | target | test | test system | setting | IC50
Cc1cc2c(NC(=O)N[C@@H]3CC(C)(C)Oc4cc(C(F)(F)F)ccc43)c(C)ccc2cn1 | Transient receptor potential cation channel subfamily V member 1 (Trpv1, Rattus norvegicus, UniProt O35433) | calcium signal, antagonist, fluorescence | – | – | 54.6 nM
c1ccc(-c2cc3ccccc3o/c2=N\c2cccc3ccccc23)cc1 | Prostaglandin G/H synthase 2 (PTGS2, Homo sapiens, UniProt P35354) | enzyme activity, inhibitor | – | – | 8.3 nM
CN(C)c1ccc2cc(S(=O)(=O)N3CC3C(N)=O)ccc2c1 (stereo not drawn) | P4HB | enzyme activity, inhibitor, absorbance | – | pH 7.6 | 33000 nM
COc1ccc(S(=O)(=O)NCc2c[nH]nc2-c2cccs2)cc1 | Myosin A, motor domain (Cryptosporidium parvum, UniProt Q5CY39) | actin-activated ATPase | – | upper bound, enzyme-limited | < 100 nM
COc1cc2nccc(Oc3ccc(NC(=S)NC4CC=C(F)CC4)c(Cl)c3)c2cc1C(N)=O (stereo not drawn) | FGFR1 | – | – | – | 7480 nM
CCN(CC)C(=O)C1CCCN(C(=O)Nc2ccc3nc(-c4ccco4)c(-c4ccco4)nc3c2)C1 (stereo not drawn) | Peptidyl-prolyl cis-trans isomerase A (PPIA, Homo sapiens, UniProt P62937) | PPIase activity, inhibitor | – | 1 h preincubation, 4 °C | 410 nM
